# Published values from different studies.
# Each line is one published result; not all experiments were run side by side. ± gives the spread as reported.
SMILES,organism,test,test system,setting,scale,quantity,value
Nc1ncnc2c1c(-c1ccccc1F)cn2[C@@H]1O[C@H](CO)[C@@H](O)[C@H]1O,Trichomonas vaginalis,resorufin,"G3, metronidazole-sensitive","24 h + 2 h, 2% O2",,EC50,0.21 ± 0.068 µM
C[C@H]1[C@H](C)CC[C@]2(CO)CC[C@]3(C)C(=CC[C@@H]4[C@@]5(C)CC[C@H](O)C(C)(C)[C@@H]5CC[C@]43C)[C@H]12,Eimeria tenella,,"MDBK, sporozoites",maximum non-toxic concentration,baseline: DMSO,invasion rate,78.9%
COC(=O)Nc1c(Cc2cccc3ccccc23)cc(=O)n2c1SCC2C(=O)Nc1ccccc1 (stereo not shown),Chlamydia trachomatis,"infectivity, second cycle","HeLa, serovar L2","1 µM, 48 h",baseline: DMSO,inhibition,-19 ± 21%
CCOC(=O)c1c(N)csc1-c1cn(-c2ccccc2)nc1-c1ccc(C)cc1,Klebsiella pneumoniae,broth microdilution,clinical urinary isolate,compound gamma-irradiated 1 kGy,,MIC,0.25 ± 0.5 µg/mL
CC[C@H]1OC(=O)[C@H](C)[C@@H](O[C@H]2C[C@@](C)(OC)[C@@H](O)[C@H](C)O2)[C@H](C)[C@@H](O[C@@H]2O[C@H](C)C[C@H](N(C)C)[C@H]2O)[C@](C)(OC)C[C@@H](C)C(=O)[C@H](C)[C@@H](O)[C@]1(C)O,Pseudomonas aeruginosa,checkerboard broth microdilution,clinical isolate 17-99,added: ranalexin,,FIC index,0.25
Nc1ncnc2c1ncn2CCOCP(=O)(O)O,herpes simplex virus 1,cytopathic effect,"HEL, KOS",72 h,,EC50,6 ± 3.5 µg/mL
O=c1[nH]c(=O)c2ncn(CC(CO)OCP(=O)(O)O)c2[nH]1 (racemic),herpes simplex virus 1,cytopathic effect,"HEL, KOS",,,EC50,39 ± 27 µM
C[C@@H](O)[C@H]1C(=O)N2C(C(=O)O)=C(S[C@@H]3CN[C@H](C(=O)N(C)C)C3)[C@H](C)[C@H]12,Pseudomonas aeruginosa,checkerboard,ATCC 27853,added: magainin II,,FIC index,0.187
CC1NC(=O)C(C(=O)NC(C(=O)NC2C(=O)N3C2SC(C)(C)C3C(=O)O)c2ccccc2)=C1O (stereo not shown),Acinetobacter baumannii,"microbial growth, broth dilution",ATCC19606,,,MIC,≥ 200 µg/mL
Nc1ncnc2c1c(-c1cc(Cl)cc(Cl)c1)cn2[C@@H]1O[C@H](CO)[C@@H](O)[C@H]1O,Trichomonas vaginalis,resorufin,"G3, metronidazole-sensitive","24 h + 2 h, 2% O2",,EC50,1.99 ± 0.56 µM
CC(C)CC1NC(=O)C(C(=O)NC(C(=O)NC2C(=O)N3C2SC(C)(C)C3C(=O)O)c2ccccc2)=C1O (stereo not shown),Acinetobacter baumannii,"microbial growth, broth dilution",ATCC19606,,,MIC,50 µg/mL
Nc1ccn(C[C@@H](CO)OCP(=O)(O)O)c(=O)n1,herpes simplex virus 1,cytopathic effect,"HEL, KOS",72 h,,EC50,0.63 ± 0.36 µg/mL
CC1(C)SC2C(NC(=O)C(NC(=O)C3=C(O)C(Cc4ccc(O)cc4)NC3=O)c3ccccc3)C(=O)N2C1C(=O)O (stereo not shown),Acinetobacter baumannii,"microbial growth, broth dilution",ATCC19606,,,MIC,100 µg/mL
Nc1ncnc2c1c(-c1ccc(Cl)cc1Cl)cn2[C@@H]1O[C@H](CO)C[C@H]1O,Trichomonas vaginalis,resorufin,"G3, metronidazole-sensitive","24 h + 2 h, 2% O2",,EC50,1.62 ± 0.31 µM
CC[C@@H](C(=O)[C@@H](C)[C@@H](O)[C@H](C)CCc1ccc(C)c(O)c1C(=O)O)[C@H]1O[C@](CC)([C@H]2CC[C@](O)(CC)[C@H](C)O2)C[C@@H]1C,Eimeria tenella,,sporozoites,"1 µM, 24 h",baseline: DMSO,viability,21.9%
CC1(C)SC2C(NC(=O)C(NC(=O)C3=C(O)C(Cc4ccc([N+](=O)[O-])cc4)NC3=O)c3ccccc3)C(=O)N2C1C(=O)O (stereo not shown),Acinetobacter baumannii,"microbial growth, broth dilution",ATCC19606,,,MIC,50 µg/mL
Cn1cnc(-c2cn(C3OC(CO)C(O)C3O)c3ncnc(N)c23)c1 (stereo not shown),Trichomonas vaginalis,resorufin,"G3, metronidazole-sensitive","24 h + 2 h, 2% O2",,EC50,2.1 ± 0.336 µM
O=c1[nH]c(=O)c2ncn(C[C@H](CF)OCP(=O)(O)O)c2[nH]1,herpes simplex virus 2,cytopathic effect,"HEL, G",,,EC50,> 313 µM
C[C@H]1c2cccc(O)c2C(=O)C2=C(O)[C@]3(O)C(=O)C(C(N)=O)=C(O)[C@@H](N(C)C)[C@@H]3[C@@H](O)[C@@H]21,Pseudomonas aeruginosa,checkerboard broth microdilution,clinical isolate 17-99,added: magainin II,,FIC index,2
CC(C)C[C@H](NC(=O)[C@H](CCc1ccccc1)NC(=O)CN1CCOCC1)C(=O)N[C@@H](Cc1ccccc1)C(=O)N[C@@H](CC(C)C)C(=O)[C@@]1(C)CO1,Babesia divergens,,erythrocyte culture,"48 h, parasitemia below starting 2%",,parasiticidal concentration,≥ 100 nM
COc1ccc(-c2cn([C@@H]3O[C@H](CO)[C@@H](O)[C@H]3O)c3ncnc(N)c23)cc1,Trichomonas vaginalis,resorufin,"G3, metronidazole-sensitive","24 h + 2 h, 2% O2",,EC50,0.21 ± 0.04 µM
CC1(C)SC2C(NC(=O)C(NC(=O)C3=C(O)C(c4ccccc4)NC3=O)c3ccccc3)C(=O)N2C1C(=O)O (stereo not shown),Escherichia coli,broth microdilution,"BW25113, Mueller-Hinton broth",,,MIC,100 µg/mL
Nc1ncnc2c1c(-c1cccc(Cl)c1)cn2[C@@H]1O[C@H](CO)[C@@H](O)[C@H]1O,Trichomonas vaginalis,resorufin,"G3, metronidazole-sensitive","24 h + 2 h, 2% O2",,EC50,0.24 ± 0.048 µM
O=C(CCc1ccc(O)cc1)c1c(O)cc(O)cc1O[C@@H]1O[C@H](CO)[C@@H](O)[C@H](O)[C@H]1O,Eimeria tenella,,"MDBK, sporozoites",maximum non-toxic concentration,baseline: DMSO,invasion rate,87.2%
Cc1ccc(-c2cn([C@@H]3O[C@H](CO)[C@@H](O)[C@H]3O)c3ncnc(N)c23)cc1C,Trichomonas vaginalis,resorufin,"G3, metronidazole-sensitive","24 h + 2 h, 2% O2",,EC50,0.43 ± 0.008 µM
CC(C)C[C@H](NC(=O)[C@H](Cc1ccccc1)NC(=O)c1cnccn1)B(O)O,Babesia divergens,"parasite growth, parasitemia by blood smear",ex vivo blood culture,48 h,baseline: DMSO,minimum significant inhibitory concentration,50 nM
CC(C)c1ccc(-c2cn([C@@H]3O[C@H](CO)C[C@H]3O)c3ncnc(N)c23)cc1,Trichomonas vaginalis,resorufin,"G3, metronidazole-sensitive","24 h + 2 h, 2% O2",,EC50,1.2 ± 0.484 µM
O=Cc1c[nH]c2ccc([N+](=O)[O-])cc12,Trypanosoma equiperdum,,"trypomastigotes, IVM-t1",,,IC50,> 131 µM

# Some of these lines once more:
SMILES,organism,test,test system,setting,scale,quantity,value
O=c1[nH]c(=O)c2ncn(C[C@H](CF)OCP(=O)(O)O)c2[nH]1,herpes simplex virus 2,cytopathic effect,"HEL, G",,,EC50,> 313 µM
Cn1cnc(-c2cn(C3OC(CO)C(O)C3O)c3ncnc(N)c23)c1 (stereo not shown),Trichomonas vaginalis,resorufin,"G3, metronidazole-sensitive","24 h + 2 h, 2% O2",,EC50,2.1 ± 0.336 µM
O=c1[nH]c(=O)c2ncn(CC(CO)OCP(=O)(O)O)c2[nH]1 (racemic),herpes simplex virus 1,cytopathic effect,"HEL, KOS",,,EC50,39 ± 27 µM
